Published values from different studies.
Values joined by “and” are separate records of one study, mostly repeats; a detail may differ. ± gives the spread as reported.

Structure (SMILES)	cell line	test	conditions	how to read	quantity	result
CCn1cc(-c2cc(Cn3ccnc3)cc3c2CCN([C@H](c2cc(OC)ccn2)C2CC2)C3=O)c(C(F)(F)F)n1	SH-10-TC	cell growth, inhibitor	120 h		EC50	16.8 µM
CCCCc1nc(Cl)c(CO)n1Cc1ccc(-c2ccccc2-c2nn[nH]n2)cc1	human PBMC	RNA-seq, item: NEFH mRNA	10 µg/mL, 24 h	baseline: untreated control	log2 fold change	2.21
CCN1CCN(Cc2ccc(NC(=O)c3ccc(C)c(-c4ccc5nc(NC(=O)C6CC6)cn5n4)c3)cc2C(F)(F)F)CC1	MHHCALL4 cells	Western blot, item: JAK2, STAT5, STAT3	concentration not given		phosphorylation	inhibited
CCc1cnc(N2CCC(c3nc(COc4ccc(-n5cnnn5)cc4)cs3)CC2)nc1	HEK-293T	RNA-seq GSEA, item: HALLMARK_GLYCOLYSIS	concentration not given	direction not given	normalized enrichment score	1.05
Cc1nn(-c2nc3c(F)cc(F)cc3s2)c(O)c1C(c1ccc(C(F)(F)F)cc1)c1c(C)nn(-c2nc3c(F)cc(F)cc3s2)c1O	THP1-Dual	IFN luciferase reporter	10 µM, added: HT-DNA		inhibition	36.5% and 20.6% and 36.8% and 20.5% and 36.2% and 40.2%
CC(C)NCC(O)c1ccc(O)c(O)c1 (centres unmarked)	mouse ventricular cardiomyocytes		dose not given, 0.427 s		sarcomere length	1.73 µm
CC(C)C[C@H](NC(=O)CNC(=O)c1cc(Cl)ccc1Cl)B1OC(=O)C(CC(=O)O)(CC(=O)O)O1	BT-16	cell viability, MTT	10 µM, 72 h		inhibition	95.1%
NC1(C(=O)N[C@@H](CCO)c2ccc(Cl)cc2)CCN(c2ncnc3[nH]ccc23)CC1	PC-3	flow cytometry	concentration not given, 48 h		G2/M phase cells	20.8%
CC/C(=N\NC(=O)C(C)Nc1ccccc1)c1ccc(O)c(C)c1O (centres unmarked)	SK-OV-3	Western blot	10 µM, 3 h, 2D culture, unit not given	baseline: DMSO	TAZ band intensity	0.26 ± 0.1
c1ccc(CNc2nc(NCc3ccccc3)c3ccccc3n2)cc1	BT-16	cell viability, MTT	10 µM, 72 h		inhibition	91.3%
Nc1cccc2c1C(=O)N(C1CCC(=O)NC1=O)C2=O (centres unmarked)	RPMI-8226	flow cytometry, item: CD43	concentration not given	baseline: comparator compound alone	surface marker level	50.5%
C=CC(=O)Nc1cc(Nc2nccc(-c3cn(C)c4ccccc34)n2)c(OC)cc1N(C)CCN(C)C	PC-9	item: PIK3CA	8 µM, 24 h	baseline: control	mRNA level	~1.5 fold
Cc1cc(Nc2ncc(Cl)c(Nc3ccccc3S(=O)(=O)C(C)C)n2)c(OC(C)C)cc1C1CCNCC1	CLB-BAR	phosphoproteomics LC-MS/MS, item: MAPK3 phosphorylation	200 nM, 60 min	baseline: untreated	log2 fold change	-4.85
C[C@]12CCCN1CC1=NNC(=O)c3cc(F)cc4[nH]c2c1c34	MDA-MB-436 (BRCA1 deficient)	cell growth, inhibitor, CellTiter-Glo	7 days		EC50	0.041 µM
COc1cnc2cccc(N3CCc4c(cc(Cn5ccnc5C)cc4-c4cn(C)nc4C(F)(F)F)C3=O)c2c1	JHH5	cell growth	120 h		EC50	> 30 µM
O=C([O-])c1ccccc1O.[Na+]	mouse bone marrow macrophages		3 mM, mean, added: RANKL and, tet-CR4-WHD	baseline: RANKL alone	osteoclastogenesis	40.1%
CCc1cccc(CC)c1NC(=O)N1Cc2n[nH]c(NC(=O)c3ccc(N4CCN(C)CC4)cc3)c2C1	BT-16	cell viability, MTT	10 µM, 72 h		inhibition	89.5%
Cn1cc(-c2ccc(-c3cncc(Cl)c3N3CCC4(CCNC4=O)CC3)cc2)cn1	COLO 205	microarray, item: ASS1	concentration not given, 2 h, gene set ASSY	baseline: untreated cells	fold change in expression	3.47
CCc1cnn2c(NCc3ccc[n+]([O-])c3)cc(N3CCCC[C@H]3CCO)nc12	BT-16	cell viability, MTT	10 µM, 72 h		inhibition	89.4%
COc1cc2ncnc(Nc3ccc(Oc4ccccc4)c(C)c3C)c2cc1OC.Cl	MeWo (NF1 mutant)	cell viability	concentration not given, 72 h, added: trametinib	direction not given	Bliss synergy score	-25.7%

Excerpt of the above:
Structure (SMILES)	cell line	test	conditions	how to read	quantity	result
CCc1cnc(N2CCC(c3nc(COc4ccc(-n5cnnn5)cc4)cs3)CC2)nc1	HEK-293T	RNA-seq GSEA, item: HALLMARK_GLYCOLYSIS	concentration not given	direction not given	normalized enrichment score	1.05
Cc1cc(Nc2ncc(Cl)c(Nc3ccccc3S(=O)(=O)C(C)C)n2)c(OC(C)C)cc1C1CCNCC1	CLB-BAR	phosphoproteomics LC-MS/MS, item: MAPK3 phosphorylation	200 nM, 60 min	baseline: untreated	log2 fold change	-4.85
